Measurements pooled from the literature.
Each line is one published result; not all experiments were run side by side. ± marks the error that the study gave.

| Molecule | target or system | assay | system | setting | scale | endpoint | value |
| --- | --- | --- | --- | --- | --- | --- | --- |
| Pillar[6]MaxQ | – | – | Swiss Webster mice, female | intravenous, tail vein, 2 day | – | NOAEL | 45 mg/kg |
| C[C@@H]1NC(=O)[C@@H]2CCCN2C(=O)[C@H](CC(N)=O)NC(=O)[C@H](Cc2c[nH]c3ccccc23)NC(=O)[C@@H]2CSSC[C@H](NC1=O)C(=O)NCC(=O)N[C@@H](CCCCN)C(=O)N[C@@H](Cc1c[nH]cn1)C(=O)N[C@@H](Cc1ccc(O)cc1)C(=O)N[C@H](C(N)=O)CSSC[C@H](NC(=O)CN)C(=O)N2 | – | RP-HPLC | mouse serum 25% | 50 µM, 6 h, 37 °C | – | remaining peptide | 61.2 ± 0.66% |
| CCCSc1nc(N[C@@H]2C[C@H]2c2ccc(F)c(F)c2)c2nnn([C@@H]3C[C@H](OCCO)[C@@H](O)[C@H]3O)c2n1 | – | – | STEMI patients, plasma | 180 mg loading dose, 4 h, together with: fentanyl | – | plasma concentration | 425 ± 450 ng/mL |
| CN(CC#CCOC(=O)Nc1cccc(Cl)c1)CCBr | – | – | solution | time not given | reference: starting concentration | remaining parent mustard | 30% |
| CNC(=O)Oc1cccc2c1OC(C)(C)C2 | – | – | male ES1−/− mice | subcutaneous, 1 mg/kg, 0.5 h | – | surface body temperature | 30 to 31 °C |
| NC12CC3CC(CC(C3)C1)C2 | Influenza A virus | viral replication | MDCK, A/Swine/Iowa/9-0805/2009 (H1N1) | – | – | EC50 | ≤ 100 µM |
| CC(C)C[C@H](NC(=O)[C@@H]1C[C@@H](O)CN1C(=O)[C@H](Cc1ccccc1)NC(=O)[C@H](CO)NC(=O)[C@H](C)NC(=O)[C@H](Cc1ccccc1)NC(=O)[C@@H](NC(=O)[C@H](CCC(=O)O)NC(=O)[C@H](Cc1c[nH]cn1)NC(=O)[C@@H](NC(=O)[C@@H](NC(=O)[C@H](CCC(N)=O)NC(=O)[C@H](C)NC(=O)[C@@H](N)CC(=O)O)[C@@H](C)O)C(C)C)C(C)C)C(=O)N[C@@H](CC(=O)O)C(=O)N[C@@H](CO)C(=O)N[C@@H](CC(=O)O)C(=O)NCC(=O)N[C@H]1CSSC[C@@H](C(N)=O)NC(=O)[C@H](Cc2ccc(O)cc2)NC(=O)[C@H](Cc2c[nH]cn2)NC(=O)[C@H](CCCCN)NC(=O)CNC(=O)[C@@H]2CSSC[C@H](NC1=O)C(=O)N[C@@H](Cc1c[nH]c3ccccc13)C(=O)N[C@@H](CC(N)=O)C(=O)N1CCC[C@H]1C(=O)N[C@@H](C)C(=O)N2 | – | – | adult wild-type zebrafish | intraperitoneal | – | LD50 | 0.118 nmol/g |
| CC(C)C[C@@H]1NC(=O)[C@H](CC(N)=O)NC(=O)[C@H](CCCCN)NC(=O)[C@@H]2CSSC[C@H](NC(=O)[C@@H](N)CCCNC(=N)N)C(=O)N[C@H]3CSSC[C@H](NC(=O)[C@H](CCCCN)NC1=O)C(=O)N[C@H](C(=O)N[C@@H](C)C(N)=O)CSSC[C@H](NC(=O)[C@H](CO)NC(=O)CNC(=O)[C@H](CCCCN)NC(=O)[C@H](CCCCN)NC(=O)CNC(=O)[C@H]([C@@H](C)O)NC3=O)C(=O)N[C@@H](CO)C(=O)NCC(=O)N[C@@H](CCCNC(=N)N)C(=O)N[C@@H](C)C(=O)N2 | – | – | Swiss Webster mice | ip or sc, 25 to 30 g body weight | – | lethal dose | 0.6 nmol/mouse |
| CCOP(=S)(OCC)Oc1ccc([N+](=O)[O-])cc1 | – | – | male ES1+/+ mice | subcutaneous, 12.5 mg/kg, 6 h | reference: baseline | surface body temperature drop | 2 °C |
| CC[C@H](C)[C@H](NC(=O)[C@H](CO)NC(=O)[C@H](Cc1ccc(O)cc1)NC(=O)[C@@H]1CCCN1C(=O)[C@H](Cc1ccc(O)cc1)NC(=O)[C@H](CC(N)=O)NC(=O)CNC(=O)[C@H](CO)NC(=O)[C@H](Cc1ccc(O)cc1)NC(=O)[C@H](CO)NC(=O)[C@H](CO)NC(=O)[C@H](CC(N)=O)NC(=O)[C@H](C)NC(=O)[C@H](CCCCN)NC(=O)[C@H](CCSC)NC(=O)[C@@H](NC(=O)[C@H](CC(C)C)NC(=O)[C@@H](NC(=O)[C@H](Cc1ccc(O)cc1)NC(=O)[C@H](CCC(N)=O)NC(=O)CNC(=O)[C@H](C)NC(=O)[C@H](CC(=O)O)NC(=O)[C@H](CC(C)C)NC(=O)[C@H](CO)NC(=O)[C@@H](N)CSC1CC(=O)N(CCNC(=O)CCCCCN2C(=CC=C3CCCC(C=CC4=[N+](CCCCS(=O)(=O)[O-])c5ccc(S(=O)(=O)O)cc5C4(C)C)=C3Oc3ccc(S(=O)(=O)O)cc3)C(C)(C)c3cc(S(=O)(=O)O)ccc32)C1=O)C(C)C)C(C)C)C(=O)N[C@@H](CC(C)C)C(=O)N[C@@H](Cc1ccccc1)C(=O)N[C@@H](CCC(N)=O)C(=O)N[C@@H](CCCCN)C(=O)N[C@@H](Cc1ccccc1)C(=O)O (stereo partly drawn) | – | ex vivo fluorescence imaging | C.B-17 SCID mouse, OSPC-ARK-1 xenograft, tumour | intraperitoneal, 10 µg | – | time to peak fluorescence | 30 min |
| CSCC[C@@H]1NC(=O)[C@H](CC(C)C)NC(=O)[C@H](CCCNC(=N)N)NC(=O)[C@H](CO)NC(=O)[C@@H]2CSSC[C@@H]3NC(=O)[C@H](CO)NC(=O)CNC(=O)[C@H]([C@@H](C)O)NC(=O)[C@H](CSSC[C@H](N)C(=O)N[C@@H](CCCCN)C(=O)NCC(=O)N[C@@H](CCCCN)C(=O)NCC(=O)N[C@@H](C)C(=O)N[C@@H](CCCCN)C(=O)N2)NC(=O)[C@H](CSSC[C@@H](C(N)=O)NC(=O)[C@H](CCCCN)NC(=O)CNC(=O)[C@H](CO)NC(=O)[C@H](CCCNC(=N)N)NC3=O)NC(=O)[C@H](CC(=O)O)NC(=O)[C@H](Cc2ccc(O)cc2)NC1=O | – | RP-HPLC | 0.25 M HCl | 0.1 mM, 6 h, 37 °C | – | peptide remaining intact | > 85% |
| CCOP(=S)(OCC)Oc1nc(Cl)c(Cl)cc1Cl | – | – | male ES1+/+ mice | transdermal, 100 mg/kg | – | time to first toxic signs | 6 h |

Some of these lines once more:
| Molecule | target or system | assay | system | setting | scale | endpoint | value |
| --- | --- | --- | --- | --- | --- | --- | --- |
| CC(C)C[C@@H]1NC(=O)[C@H](CC(N)=O)NC(=O)[C@H](CCCCN)NC(=O)[C@@H]2CSSC[C@H](NC(=O)[C@@H](N)CCCNC(=N)N)C(=O)N[C@H]3CSSC[C@H](NC(=O)[C@H](CCCCN)NC1=O)C(=O)N[C@H](C(=O)N[C@@H](C)C(N)=O)CSSC[C@H](NC(=O)[C@H](CO)NC(=O)CNC(=O)[C@H](CCCCN)NC(=O)[C@H](CCCCN)NC(=O)CNC(=O)[C@H]([C@@H](C)O)NC3=O)C(=O)N[C@@H](CO)C(=O)NCC(=O)N[C@@H](CCCNC(=N)N)C(=O)N[C@@H](C)C(=O)N2 | – | – | Swiss Webster mice | ip or sc, 25 to 30 g body weight | – | lethal dose | 0.6 nmol/mouse |
| NC12CC3CC(CC(C3)C1)C2 | Influenza A virus | viral replication | MDCK, A/Swine/Iowa/9-0805/2009 (H1N1) | – | – | EC50 | ≤ 100 µM |
